Experimental data from different studies.
Lines come from different studies, so protocols differ.
KIT L576P: Mast/stem cell growth factor receptor Kit (KIT, Homo sapiens, UniProt P10721, L576P)
KIT D816H: Mast/stem cell growth factor receptor Kit (KIT, Homo sapiens, UniProt P10721, D816H)
KIT V559D: Mast/stem cell growth factor receptor Kit (KIT, Homo sapiens, UniProt P10721, V559D)

CNC(=O)C1CCN(c2cc(C)c(F)cc2NC(=O)c2ccc(-c3cc(O)ccc3C)c(C)c2)CC1  remaining binding (KIT (Homo sapiens, UniProt P10721, V559D/V654A); binding, competition with immobilised ligand; 1 µM): 91%
COc1c(Cl)cccc1Nc1c(-c2ccncc2C#C[C@@]2(C)CCCN2C(=O)/C=C/CN(C)C)[nH]c2c1C(=O)NCC2  remaining binding (KIT L576P; binding, competition with immobilised ligand; 3 µM): 88%
CNC1C[S+]2CC[S+]3CC[S+](C1)[Ru-4]321([N]=C=S)[n]2c3ccc(OC)cc3c3c4c(c5cc(F)c[n+]1c5c32)C(=O)NC4=O (stereo not shown)  remaining binding (KIT D816H; KinomeScan; 0.1 µM; reference: untreated): 40%
Nc1ncc2c(n1)-c1c([nH]c3ccc(C4=CCOCC4)cc13)CCC2  remaining binding (KIT (Homo sapiens, UniProt P10721); binding, competition with immobilised ligand; 1 µM): 100%
CCN1CCN(Cc2ccc(C(=O)Nc3ccc(C)c(NCc4cnc5[nH]ccc5c4OC)c3)cc2C(F)(F)F)CC1  remaining binding (KIT V559D; binding, competition with immobilised ligand; 1 µM): 0.1%
C=CC(=O)N1CCc2ccc(-n3c(=O)ccc4cnc5ccc(-c6cnn(C)c6)cc5c43)cc21  remaining binding (KIT L576P; KINOMEscan; 1 µM; reference: DMSO control): 88%
Cc1cnc2nc1Nc1cccc(c1)COC/C=C/COCc1cc(ccc1OCCN1CCOCC1)N2  remaining binding (KIT (Homo sapiens, UniProt P10721, D816V); binding; 0.1 µM): 59%
Cc1ccc(-c2c(/C=C(\C#N)C(=O)NC(C)C)n(CCCO)c3ncnc(N)c23)cc1  remaining binding (KIT V559D; cell-free assay, competition with immobilised ligand; 1 µM): 24%
CC(C)=CC1OC(C)(C)C2C=C3C(=O)C(Cl)=CC(O)C3C3C(O)C4OC4C(=O)C132 (stereo not shown)  remaining binding (Mast/stem cell growth factor receptor Kit, autoinhibited (KIT, Homo sapiens, UniProt P10721); cell-free assay, competition with immobilised ligand; 10 µM): 72%
C=CC(=O)N1CCCC(n2c(=O)c3ncccc3n(Cc3ccc(Oc4ccccc4)cc3)c2=O)C1 (stereo not shown)  remaining binding (KIT D816H; cell-free assay, competition with immobilised ligand; 1 µM): 74%
